Experimental data pooled from the literature.
Compare with care: the assays were run in different laboratories. “And” joins repeats or separate records; there may be more than shown. Values after ≈ are worked out from the molar mass of the structure shown.
Organism: Staphylococcus aureus

The MIC of `CCCCCCCCCC(=O)N[C@@H](Cc1c[nH]c2ccccc12)C(=O)N[C@H](CC(N)=O)C(=O)N[C@@H](CC(=O)O)C(=O)N[C@@H]1C(=O)NCC(=O)N[C@@H](CCCN)C(=O)N[C@@H](CC(=O)O)C(=O)N[C@H](C)C(=O)N[C@@H](CC(=O)O)C(=O)NCC(=O)N[C@H](CO)C(=O)N[C@@H]([C@H](C)CC(=O)O)C(=O)N[C@@H](CC(=O)c2ccccc2N)C(=O)O[C@@H]1C` is reported as 0.25 µg/mL (≈ 0.154 µM) (broth microdilution; BR-VRSA strain 880, Mueller-Hinton broth, Mg2+ 10 mg/L; 16 h, together with: Ca2+ 5 mM).
For `C=CC[C@@H]1c2ccc(OC)c(OC)c2CN2CCc3cc4c(cc3[C@H]12)OCO4`, “relative wound size” read 0.79 and 0.9 and 1.23 and 0.91 and 0.98 and 0.95 (P2rx7 A312V/A312V mice, skin wound infection; dose not given, day 3; relative to: day 0).
The MBC of `CN[C@H](CC(C)C)C(=O)N[C@H]1C(=O)N[C@@H](CC(N)=O)C(=O)N[C@H]2C(=O)N[C@H]3C(=O)N[C@H](C(=O)N[C@H](C(=O)O)c4cc(O)cc(O)c4-c4cc3ccc4O)[C@H](O)c3ccc(c(Cl)c3)Oc3cc2cc(c3O[C@@H]2O[C@H](CO)[C@@H](O)[C@H](O)[C@H]2O[C@H]2C[C@](C)(N)[C@H](O)[C@H](C)O2)Oc2ccc(cc2Cl)[C@H]1O` is reported as 4 µg/mL (≈ 2.76 µM) (CAAS-2019-CAAS-2019-14 clinical blaZ-resistant isolate, 25% plasma).
The MIC of `CC(C)C[C@H](NC(=O)CNC(=O)CNC(=O)CNC(=O)[C@H](Cc1ccc(O)cc1)NC(=O)[C@H](CC(C)C)NC(=O)[C@@H](NC(=O)CNC(=O)[C@H](Cc1ccc(O)cc1)NC(=O)[C@H](CCCCN)NC(=O)[C@H](CC(N)=O)NC(=O)[C@@H](NC(=O)[C@H](CCCCN)NC(=O)[C@H](Cc1c[nH]c2ccccc12)NC(=O)CN)[C@@H](C)O)[C@@H](C)O)C(=O)N[C@@H](CCCCN)C(=O)N[C@@H](CCCCN)C(=O)N[C@@H](CC(C)C)C(=O)N[C@@H](CC(C)C)C(=O)N[C@@H](CC(C)C)C(=O)N[C@@H](CC(C)C)C(=O)N[C@@H](CC(C)C)C(=O)N[C@@H](CCCCN)C(=O)N[C@@H](CCCCN)C(=O)N[C@@H](CC(C)C)C(=O)NCC(=O)O` is reported as 16 µg/mL (≈ 5.59 µM) (ATCC 25923; together with: 8 µM ZnCl2).
`CC[C@H](C)[C@H](NC(=O)[C@H](CCCCN)NC(=O)[C@H](CCCCN)NC(=O)[C@H](Cc1ccccc1)NC(=O)[C@@H](NC(=O)[C@@H](NC(=O)[C@H](CCCNC(=N)N)NC(=O)[C@H](Cc1ccccc1)NC(=O)[C@@H](NC(=O)[C@H](CCCCN)NC(=O)[C@H](CCCCN)NC(=O)[C@@H](N)CCSC)[C@@H](C)CC)C(C)C)[C@@H](C)CC)C(=O)N[C@@H](CC(C)C)C(=O)N[C@@H](CCCCN)C(=O)N[C@@H](CCCNC(=N)N)C(=O)N[C@@H](CC(C)C)C(=O)N[C@H](C(=O)N[C@H](C(=O)O)C(C)C)[C@@H](C)CC` gave an MIC of 4 µg/mL (≈ 1.76 µM) (broth microdilution; GU-1 MRSA; together with: 1 mM MgSO4).
The MBC of `CO/N=C(\C(=O)N[C@@H]1C(=O)N2C(C(=O)O)=C(CSC(=O)c3ccco3)CS[C@H]12)c1csc(N)n1` is reported as 32 µg/mL (CAAS-2019-CAAS-2019-09 clinical blaZ-resistant isolate, 25% plasma).
`OB(O)c1csc2ccccc12` — result for “growth relative to untreated”: 97% and 85.7% and 89.2% and 85.3% and 85.5% (USA300 wild type; 1 µM; relative to: untreated).
`CC[C@H](C)[C@H](NC(=O)[C@H](C)NC(=O)[C@H](CCCCN)NC(=O)[C@H](CC(C)C)NC(=O)[C@H](C)NC(=O)[C@@H](NC(=O)[C@H](Cc1c[nH]cn1)NC(=O)[C@H](CC(C)C)NC(=O)[C@@H](NC(=O)[C@@H](NC(=O)[C@H](CCCCN)NC(=O)[C@H](C)NC(=O)[C@H](C)NC(=O)[C@H](CO)NC(=O)[C@H](CCCCN)NC(=O)[C@H](Cc1ccccc1)NC(=O)[C@@H](NC(=O)[C@H](CCCCN)NC(=O)[C@H](CC(C)C)NC(=O)[C@H](Cc1ccccc1)NC(=O)[C@H](CO)NC(=O)[C@H](CCCCN)NC(=O)[C@H](Cc1c[nH]c2ccccc12)NC(=O)[C@H](CCCCN)NC(C)=O)[C@@H](C)O)[C@@H](C)O)C(C)C)[C@@H](C)O)C(=O)N[C@@H](CO)C(=O)N[C@@H](CO)C(N)=O` has an MBC90 of 32 µg/mL (≈ 10.9 µM) (MRSA; 130 strains).
`CN[C@H](CC(C)C)C(=O)N[C@H]1C(=O)N[C@@H](CC(N)=O)C(=O)N[C@H]2C(=O)N[C@H]3C(=O)N[C@H](C(=O)N[C@H](C(=O)O)c4cc(O)cc(O)c4-c4cc3ccc4O)[C@H](O)c3ccc(c(Cl)c3)Oc3cc2cc(c3O[C@@H]2O[C@H](CO)[C@@H](O)[C@H](O)[C@H]2O[C@H]2C[C@](C)(N)[C@H](O)[C@H](C)O2)Oc2ccc(cc2Cl)[C@H]1O` has an MIC of 2 µg/mL (≈ 1.38 µM) (MRSA strain 2).
`Cc1c2c(nn1C)CSCc1cc(n(C)n1)CSc1cc(c3ccccc3c1)OCCCc1c(C(=O)O)n(C)c3c-2c(Cl)ccc13`: “log2 fold change” -4.66 (label-free proteomics, item: pyrB; SA113; concentration not given; relative to: untreated).
